{"data": "Published values collected from several papers", "note": "Protocols differ between the studies behind these lines. “And” joins repeats or separate records; there may be more than shown. ± marks the error that the study gave."}
{"Structure (SMILES)": "O=C(O)c1cccc(CSc2nnc(-c3ccncc3)o2)c1", "system": "aqueous buffer", "setting": "pH 7.4", "quantity": "solubility", "value": "422 µg/mL"}
{"Structure (SMILES)": "Cc1c([C@@H]2COC[C@H](c3cc(Cl)cc(Cl)c3)N2)cnn1-c1ccccc1", "test": "shake-flask, LC-HRMS", "system": "aqueous buffer", "setting": "16 h, pH 6.8", "quantity": "solubility", "value": "< 4 µM"}
{"Structure (SMILES)": "N#Cc1ccc2c(c1)[C@H]1CCCN(C(=O)c3ccc4[nH]cnc4c3)[C@H]1C2", "system": "human males", "setting": "80 mg, end of trial", "quantity": "total testosterone level", "value": "15.1 nmol/L"}
{"Structure (SMILES)": "Cc1cccc(CNC(=O)c2cn(CCNC(=O)c3ccccc3Sc3c([N+](=O)[O-])ncn3C)c3cc4c(cc3c2=O)OC(F)(F)O4)n1", "system": "Sprague-Dawley rat, male, plasma", "setting": "intravenous, 20 mg/kg of parent drug", "quantity": "MRT(0-inf)", "value": "37.8 ± 6.6 min"}
{"Structure (SMILES)": "Cc1coc([C@H]2C[C@H]3[C@@H](CF)SC(N)=N[C@@]3(c3ccc(F)cc3F)CO2)n1", "system": "male 129/SVE mouse, CSF", "setting": "subcutaneous, 80 mg/kg, 3 h", "quantity": "CSF concentration", "value": "189 nM"}
{"Structure (SMILES)": "CCCCC1=NC2(CCCC2)C(=O)N1Cc1ccc(-c2ccccc2S(=O)(=O)Nc2noc(C)c2C)c(COCC)c1", "system": "healthy adult volunteers, plasma", "setting": "oral, 200 mg, single dose, fasted, crushed tablet", "quantity": "Tmax", "value": "2.51 h"}
{"Structure (SMILES)": "Cc1ccc(S(=O)(=O)n2cc3c4c2C(=O)C(NCc2ccc(Cl)cc2)=CC4=NCC3)cc1", "system": "Sprague-Dawley rat, plasma", "setting": "intravenous, 5 mg/kg, two-compartment model", "quantity": "central compartment volume", "value": "0.003 L/kg and 0.002 L/kg"}
{"Structure (SMILES)": "COc1ccc2c(c1)CN(C(=O)CCN1CCC(Cc3ccccc3)CC1)CC[S@@+]2[O-]", "test": "telemetry", "system": "conscious male beagle dogs", "setting": "intravenous, 8 mg/kg, 1 h", "quantity": "QRS duration", "value": "32 ± 8 ms"}
{"Structure (SMILES)": "CNC(=O)c1cc(Oc2ccc(NC(=O)Nc3cc(C(C)(C)C)nn3-c3ccc4ncccc4c3)c(F)c2)ccn1", "test": "refers to: worst grade 2", "system": "human", "setting": "oral, dose not given, cycles 1 and 2, Low Cmax subgroup", "quantity": "patients with nervous system disorder AE", "value": "6%"}
{"Structure (SMILES)": "Cc1cc(NC2CCN(C(=O)OC3CCN(C(=O)/C=C/CN(C)C)C3)CC2)n2ncc(C(C)C)c2n1 (stereo not drawn)", "test": "Phase I dose escalation CTCAE v4.0, refers to: Diarrhea", "system": "patients with advanced solid tumours", "setting": "dose not given, TIW dosing any grade", "quantity": "patients with adverse event", "value": "18%"}
{"Structure (SMILES)": "Cc1ccc([C@@H]2O[C@H](CO)[C@@H](O)[C@H](O)[C@H]2O)cc1Cc1ccc(-c2ccc(F)cc2)s1", "system": "Japanese type 2 diabetes patients", "setting": "400 mg, day 2, 24 h urine collection", "scale": "relative to: baseline", "quantity": "urinary magnesium excretion change", "value": "-13.1 mg"}
{"Structure (SMILES)": "COc1cc2nccc(Oc3ccc(NC(=O)c4cc5c(n(-c6ccccc6)c4=O)CCCC5=O)nc3)c2cc1OC", "system": "patients with relapsed/refractory AML", "setting": "oral, 3 mg once daily", "quantity": "drug-related TEAEs leading to interruption", "value": "0%"}
{"Structure (SMILES)": "CO[C@H]1C[C@@H]2CC[C@@H](C)[C@@](O)(O2)C(=O)C(=O)N2CCCC[C@H]2C(=O)O[C@H]([C@H](C)C[C@@H]2CC[C@@H](OC(=O)NCCOCCOCCOCCOCCOCCOCCOCCOCCC(=O)N3CCc4cc(Cn5nc(-c6ccc7oc(N)nc7c6)c6c(N)ncnc65)ccc4C3)[C@H](OC)C2)C[C@@H](O)[C@H](C)/C=C(\\C)[C@@H](O)[C@@H](OC)C(=O)[C@H](C)C[C@H](C)/C=C/C=C/C=C/1C", "system": "human, plasma", "setting": "intravenous, 10 mg, Cycle 1, 2 h infusion", "scale": "relative to: Day 15 over Day 1", "quantity": "AUClast accumulation ratio", "value": 1.6}
{"Structure (SMILES)": "O=C(Nc1nc2cccc(-c3ccc(CN4CCS(=O)(=O)CC4)cc3)n2n1)C1CC1", "test": "refers to: food allergy", "system": "human rheumatoid arthritis patients", "setting": "oral, 75 mg once daily, 4 weeks, regardless of relatedness", "quantity": "treatment-emergent adverse events", "value": "0%"}
{"Structure (SMILES)": "Cc1ccc([C@H]2COC[C@@H](c3cccc(C(F)(F)F)c3)N2)c(O)c1", "test": "shake-flask, LC-HRMS", "system": "aqueous buffer", "setting": "16 h, pH 6.8", "quantity": "solubility", "value": "< 4 µM"}
{"Structure (SMILES)": "O=C(O)CCC(=O)O.[2H]C([2H])([2H])Oc1cc(C)c2[nH]ccc2c1CN1CC[C@@H](C2CC2)C[C@H]1c1ccc(C(=O)O)cc1", "test": "multiple ascending dose", "system": "healthy Chinese subjects", "setting": "50 mg twice daily", "quantity": "subjects with TEAE Appendicitis", "value": "0%"}
{"Structure (SMILES)": "CCOC(=O)N1C[C@@H](C2CCOCC2)N[C@@H](C2CCC2)C1", "test": "shake-flask, LC-HRMS", "system": "aqueous buffer", "setting": "16 h, pH 6.8", "quantity": "solubility", "value": "> 750 µM"}
{"Structure (SMILES)": "[18F]c1ccc(-c2ccc3c(c2)[nH]c2ccncc23)cn1", "test": "ex vivo biodistribution", "system": "APP/PS1 mouse, AD model, lungs", "setting": "intravenous, 30 min", "quantity": "SUV", "value": "0.976 ± 0.171"}
{"Structure (SMILES)": "Cc1c(C(=O)O)ccc2c3n(nc12)[C@@H]1[C@H](C3)N(CC2CC2)[C@@]2(C(=O)Nc3cc(Cl)ccc32)[C@H]1c1cccc(Cl)c1F", "system": "human patients phase Ia", "setting": "oral, dose not given, grade ≥3, all patients", "quantity": "decreased weight incidence", "value": "0%"}
{"Structure (SMILES)": "CCOC(=O)N1C[C@@H](c2ccc(Cl)cc2)N[C@@H](c2ccc(C(C)(C)C)cc2)C1", "test": "shake-flask, LC-HRMS", "system": "aqueous buffer", "setting": "16 h, pH 6.8", "quantity": "solubility", "value": "< 4 µM"}
{"Structure (SMILES)": "CO[C@H]1C[C@@H]2CC[C@@H](C)[C@@](O)(O2)C(=O)C(=O)N2CCCC[C@H]2C(=O)O[C@H]([C@H](C)C[C@@H]2CC[C@@H](O)[C@H](OC)C2)CC(=O)[C@H](C)/C=C(\\C)[C@@H](O)[C@@H](OC)C(=O)[C@H](C)C[C@H](C)/C=C/C=C/C=C/1C", "system": "healthy adult horses", "setting": "intravenous, 0.06 mg/kg, 10 h", "quantity": "heart rate", "value": "32.5 ± 3.1 beats/min"}
{"Structure (SMILES)": "CCOc1c([C@H](C)n2nc(C)c3c(N)ncnc32)cc(Cl)c(F)c1[C@@H]1CNC(=O)C1", "test": "refers to: QRS > 110 ms", "system": "previously treated B-cell malignancy", "setting": "oral, dose not given, baseline below thresholds, all doses", "quantity": "share of patients", "value": "1.9%"}
{"Structure (SMILES)": "C[Si](C)(C)O[Si](C)(C)C", "setting": "2 to 27 µg/L, 28.3 °C", "quantity": "log KAW", "value": 2.6}
{"Structure (SMILES)": "COc1ccc([C@@H](O)c2cc(-c3ncnc4cc(N5CCOCC5)ccc34)c(F)cc2Cl)nn1", "system": "locally advanced rectal cancer", "setting": "oral, 100 mg, added: capecitabine and radiotherapy", "quantity": "rectal haemorrhage TEAE", "value": "0%"}
{"Structure (SMILES)": "C=CCN1CC(=O)N2[C@@H](Cc3ccc(O)cc3F)C(=O)N(Cc3cccc(N4CC(N5CCN(CC)CC5)C4)n3)C[C@@H]2N1C(=O)NCc1ccccc1", "system": "advanced solid tumour patients", "setting": "oral, 10 mg twice daily, grade ≥3, dose-escalation", "quantity": "treatment-related diarrhoea", "value": "0%"}
{"Structure (SMILES)": "Cc1cc(C)c(CNC(=O)c2cc(Cl)c3c(c2C)O[C@@](C)([C@H]2CC[C@H](N(C)C)CC2)O3)c(=O)[nH]1", "system": "human male, urine and feces", "setting": "oral, 200 mg", "scale": "relative to: dose", "quantity": "excretion as parent", "value": "74.9%"}
{"Structure (SMILES)": "c1ccc(-c2ncc([C@H]3COC[C@@H](c4ccc(-c5ccccn5)cc4)N3)cn2)cc1", "test": "shake-flask, LC-HRMS", "system": "aqueous buffer", "setting": "16 h, pH 6.8", "quantity": "solubility", "value": "< 4 µM"}
{"Structure (SMILES)": "NC1(C(=O)N[C@@H](CCO)c2ccc(Cl)cc2)CCN(c2nc[nH]c3nccc2-3)CC1", "system": "metastatic CRPC patients", "setting": "480 mg b.i.d., any grade, treatment-related, added: enzalutamide 160 mg daily", "quantity": "incidence of lower abdominal pain", "value": "20%"}
{"Structure (SMILES)": "CCN1CCN(Cc2ccc(NC(=O)c3ccc(C)c(NC(=O)c4cncc(-c5cccs5)c4)c3)cc2C(F)(F)F)CC1", "test": "LC-MS/MS", "system": "C57BL/6 mouse, plasma", "setting": "intraperitoneal, 10 mg/kg single dose, 8 h", "quantity": "mean plasma concentration", "value": "0.03 µg/mL"}
{"Structure (SMILES)": "O=c1[nH]c(=O)n([C@@H]2O[C@H](CO)[C@@H](O)[C@@H]2F)cc1CCC[18F]", "system": "nude mice, RG2 tumour, heart", "setting": "intravenous, dose not given, 2 h", "quantity": "biodistribution", "value": "0.15 ± 0.08 %ID/g"}
{"Structure (SMILES)": "CN(CCCN1CCN(C(=O)CN2CCN(CC(=O)[O-])CCN(CC(=O)[O-])CCN(CC(=O)[O-])CC2)CC1)c1ccc2nccc(C(=O)NCC(=O)N3CC(F)(F)C[C@H]3C#N)c2c1.[68Ga+3]", "system": "mice, HT-1080.hFAP and HT-1080 wild-type xenografts, kidney", "setting": "iv, 500 pmol, 4 h post injection", "quantity": "uptake", "value": "1.3 ± 0.2 %IA/g"}
{"Structure (SMILES)": "O=c1[nH]c(=O)n([C@@H]2O[C@H](CO)[C@@H](O)[C@@H]2F)cc1CCCCC[18F]", "system": "nude mice, RG2 tumour, muscle", "setting": "intravenous, dose not given, 2 h", "quantity": "biodistribution", "value": "0.1 ± 0.03 %ID/g"}
{"Structure (SMILES)": "CCCOc1ccc(-c2ccc(C#N)cc2)cc1", "system": "Sprague-Dawley rat, female, placenta", "setting": "10 ng/mL in perfusate, 50 (unit not given), low dose, mixture of 21 LCMs", "quantity": "placental accumulation", "value": "29.1 ± 39.4 ng/g"}
{"note": "Some of these lines once more:"}
{"Structure (SMILES)": "[18F]c1ccc(-c2ccc3c(c2)[nH]c2ccncc23)cn1", "test": "ex vivo biodistribution", "system": "APP/PS1 mouse, AD model, lungs", "setting": "intravenous, 30 min", "quantity": "SUV", "value": "0.976 ± 0.171"}
{"Structure (SMILES)": "Cc1ccc([C@H]2COC[C@@H](c3cccc(C(F)(F)F)c3)N2)c(O)c1", "test": "shake-flask, LC-HRMS", "system": "aqueous buffer", "setting": "16 h, pH 6.8", "quantity": "solubility", "value": "< 4 µM"}
{"Structure (SMILES)": "Cc1cc(C)c(CNC(=O)c2cc(Cl)c3c(c2C)O[C@@](C)([C@H]2CC[C@H](N(C)C)CC2)O3)c(=O)[nH]1", "system": "human male, urine and feces", "setting": "oral, 200 mg", "scale": "relative to: dose", "quantity": "excretion as parent", "value": "74.9%"}
{"Structure (SMILES)": "C=CCN1CC(=O)N2[C@@H](Cc3ccc(O)cc3F)C(=O)N(Cc3cccc(N4CC(N5CCN(CC)CC5)C4)n3)C[C@@H]2N1C(=O)NCc1ccccc1", "system": "advanced solid tumour patients", "setting": "oral, 10 mg twice daily, grade ≥3, dose-escalation", "quantity": "treatment-related diarrhoea", "value": "0%"}
